Published values of several laboratories.
pIC50: −log10 of the molar value.
PFF0160c E182D: Dihydroorotate dehydrogenase (quinone), mitochondrial (PFF0160c, Plasmodium falciparum, UniProt Q08210, E182D)
TMPRSS2: Transmembrane protease serine 2 (TMPRSS2, Homo sapiens, UniProt O15393)
Chain of UniProt O15393 (whole entry, looked up): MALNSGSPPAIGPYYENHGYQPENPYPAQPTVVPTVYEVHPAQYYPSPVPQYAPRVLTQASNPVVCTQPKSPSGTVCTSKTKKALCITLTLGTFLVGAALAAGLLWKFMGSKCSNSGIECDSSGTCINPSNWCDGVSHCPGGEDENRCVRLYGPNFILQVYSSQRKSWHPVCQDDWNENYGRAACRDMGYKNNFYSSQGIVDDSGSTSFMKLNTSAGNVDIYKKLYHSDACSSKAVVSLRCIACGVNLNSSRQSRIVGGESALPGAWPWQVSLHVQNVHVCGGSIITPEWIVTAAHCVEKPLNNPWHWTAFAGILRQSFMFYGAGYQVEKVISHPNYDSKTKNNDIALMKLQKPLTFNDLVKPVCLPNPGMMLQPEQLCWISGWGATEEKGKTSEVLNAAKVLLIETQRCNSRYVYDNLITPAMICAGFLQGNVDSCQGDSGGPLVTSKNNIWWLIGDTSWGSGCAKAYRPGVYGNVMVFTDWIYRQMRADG
Chain of UniProt P31152 (whole entry, looked up): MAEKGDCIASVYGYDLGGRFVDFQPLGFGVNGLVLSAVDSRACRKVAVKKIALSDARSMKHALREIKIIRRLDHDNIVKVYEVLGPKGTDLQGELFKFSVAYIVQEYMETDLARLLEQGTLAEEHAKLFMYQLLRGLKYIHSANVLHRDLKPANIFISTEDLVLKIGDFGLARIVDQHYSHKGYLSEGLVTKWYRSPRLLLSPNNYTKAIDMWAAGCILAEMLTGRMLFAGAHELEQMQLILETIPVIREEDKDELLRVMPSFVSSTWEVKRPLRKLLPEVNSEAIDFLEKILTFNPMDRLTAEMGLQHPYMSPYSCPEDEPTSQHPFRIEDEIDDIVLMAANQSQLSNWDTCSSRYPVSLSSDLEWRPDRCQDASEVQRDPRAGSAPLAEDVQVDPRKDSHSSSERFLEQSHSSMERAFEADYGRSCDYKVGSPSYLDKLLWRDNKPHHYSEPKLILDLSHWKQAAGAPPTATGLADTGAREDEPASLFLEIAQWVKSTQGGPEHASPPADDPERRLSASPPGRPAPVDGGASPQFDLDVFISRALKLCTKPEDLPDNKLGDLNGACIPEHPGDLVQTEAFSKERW
Chain of UniProt P14416 (whole entry, looked up): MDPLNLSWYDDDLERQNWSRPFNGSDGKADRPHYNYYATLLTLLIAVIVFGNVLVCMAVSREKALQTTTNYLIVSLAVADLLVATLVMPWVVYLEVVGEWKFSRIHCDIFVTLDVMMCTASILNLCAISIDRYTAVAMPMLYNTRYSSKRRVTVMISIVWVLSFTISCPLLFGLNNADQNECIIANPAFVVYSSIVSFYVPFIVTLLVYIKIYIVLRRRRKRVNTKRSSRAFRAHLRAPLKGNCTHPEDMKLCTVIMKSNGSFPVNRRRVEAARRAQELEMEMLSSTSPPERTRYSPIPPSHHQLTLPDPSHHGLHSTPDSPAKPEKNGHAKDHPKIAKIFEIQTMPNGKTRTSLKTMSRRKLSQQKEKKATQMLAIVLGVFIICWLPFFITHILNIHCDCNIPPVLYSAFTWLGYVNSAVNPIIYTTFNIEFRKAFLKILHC
Chain of UniProt P25101 (whole entry, looked up): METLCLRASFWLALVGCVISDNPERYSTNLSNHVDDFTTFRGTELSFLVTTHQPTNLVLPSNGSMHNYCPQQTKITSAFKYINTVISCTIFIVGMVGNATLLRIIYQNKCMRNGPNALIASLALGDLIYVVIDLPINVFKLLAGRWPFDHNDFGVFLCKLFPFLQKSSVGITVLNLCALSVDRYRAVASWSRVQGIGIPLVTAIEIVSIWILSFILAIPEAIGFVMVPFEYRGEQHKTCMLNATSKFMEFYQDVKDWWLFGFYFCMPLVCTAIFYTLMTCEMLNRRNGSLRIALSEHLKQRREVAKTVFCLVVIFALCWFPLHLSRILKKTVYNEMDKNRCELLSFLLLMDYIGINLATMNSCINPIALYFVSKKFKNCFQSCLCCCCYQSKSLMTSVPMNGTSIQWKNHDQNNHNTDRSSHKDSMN
Chain of UniProt Q9Y4K4 (whole entry, looked up): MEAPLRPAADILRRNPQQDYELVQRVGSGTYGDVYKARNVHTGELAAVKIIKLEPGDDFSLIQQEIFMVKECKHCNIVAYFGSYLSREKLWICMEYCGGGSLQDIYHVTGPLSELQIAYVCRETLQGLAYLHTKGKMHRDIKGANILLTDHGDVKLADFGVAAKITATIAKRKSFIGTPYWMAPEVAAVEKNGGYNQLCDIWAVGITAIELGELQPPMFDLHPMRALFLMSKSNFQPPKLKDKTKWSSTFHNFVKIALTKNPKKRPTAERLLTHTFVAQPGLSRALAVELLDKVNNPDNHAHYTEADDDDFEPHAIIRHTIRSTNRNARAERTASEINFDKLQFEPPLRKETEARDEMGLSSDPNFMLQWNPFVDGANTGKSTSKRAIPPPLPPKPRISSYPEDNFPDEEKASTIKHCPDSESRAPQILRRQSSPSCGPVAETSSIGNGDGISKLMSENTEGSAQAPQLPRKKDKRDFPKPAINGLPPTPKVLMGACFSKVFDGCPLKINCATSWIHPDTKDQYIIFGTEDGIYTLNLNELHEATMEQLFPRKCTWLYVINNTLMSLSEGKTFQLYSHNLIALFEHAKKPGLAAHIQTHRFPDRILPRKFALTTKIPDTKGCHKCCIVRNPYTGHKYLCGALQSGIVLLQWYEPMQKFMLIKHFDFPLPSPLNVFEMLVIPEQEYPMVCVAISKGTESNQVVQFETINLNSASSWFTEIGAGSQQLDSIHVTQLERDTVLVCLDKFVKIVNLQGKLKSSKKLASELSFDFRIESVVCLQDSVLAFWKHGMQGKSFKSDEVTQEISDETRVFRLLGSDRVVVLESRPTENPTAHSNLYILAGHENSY
Chain of UniProt P07711 (whole entry, looked up): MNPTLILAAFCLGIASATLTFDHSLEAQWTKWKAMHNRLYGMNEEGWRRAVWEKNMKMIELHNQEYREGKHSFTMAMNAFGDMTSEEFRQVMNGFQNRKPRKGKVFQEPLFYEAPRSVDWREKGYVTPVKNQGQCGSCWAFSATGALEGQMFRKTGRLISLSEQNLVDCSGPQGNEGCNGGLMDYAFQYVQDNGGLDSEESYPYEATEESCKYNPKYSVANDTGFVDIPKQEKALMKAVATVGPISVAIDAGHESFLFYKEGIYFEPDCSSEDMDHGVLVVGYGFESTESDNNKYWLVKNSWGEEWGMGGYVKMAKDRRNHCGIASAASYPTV
Chain of UniProt Q04912 (whole entry, looked up): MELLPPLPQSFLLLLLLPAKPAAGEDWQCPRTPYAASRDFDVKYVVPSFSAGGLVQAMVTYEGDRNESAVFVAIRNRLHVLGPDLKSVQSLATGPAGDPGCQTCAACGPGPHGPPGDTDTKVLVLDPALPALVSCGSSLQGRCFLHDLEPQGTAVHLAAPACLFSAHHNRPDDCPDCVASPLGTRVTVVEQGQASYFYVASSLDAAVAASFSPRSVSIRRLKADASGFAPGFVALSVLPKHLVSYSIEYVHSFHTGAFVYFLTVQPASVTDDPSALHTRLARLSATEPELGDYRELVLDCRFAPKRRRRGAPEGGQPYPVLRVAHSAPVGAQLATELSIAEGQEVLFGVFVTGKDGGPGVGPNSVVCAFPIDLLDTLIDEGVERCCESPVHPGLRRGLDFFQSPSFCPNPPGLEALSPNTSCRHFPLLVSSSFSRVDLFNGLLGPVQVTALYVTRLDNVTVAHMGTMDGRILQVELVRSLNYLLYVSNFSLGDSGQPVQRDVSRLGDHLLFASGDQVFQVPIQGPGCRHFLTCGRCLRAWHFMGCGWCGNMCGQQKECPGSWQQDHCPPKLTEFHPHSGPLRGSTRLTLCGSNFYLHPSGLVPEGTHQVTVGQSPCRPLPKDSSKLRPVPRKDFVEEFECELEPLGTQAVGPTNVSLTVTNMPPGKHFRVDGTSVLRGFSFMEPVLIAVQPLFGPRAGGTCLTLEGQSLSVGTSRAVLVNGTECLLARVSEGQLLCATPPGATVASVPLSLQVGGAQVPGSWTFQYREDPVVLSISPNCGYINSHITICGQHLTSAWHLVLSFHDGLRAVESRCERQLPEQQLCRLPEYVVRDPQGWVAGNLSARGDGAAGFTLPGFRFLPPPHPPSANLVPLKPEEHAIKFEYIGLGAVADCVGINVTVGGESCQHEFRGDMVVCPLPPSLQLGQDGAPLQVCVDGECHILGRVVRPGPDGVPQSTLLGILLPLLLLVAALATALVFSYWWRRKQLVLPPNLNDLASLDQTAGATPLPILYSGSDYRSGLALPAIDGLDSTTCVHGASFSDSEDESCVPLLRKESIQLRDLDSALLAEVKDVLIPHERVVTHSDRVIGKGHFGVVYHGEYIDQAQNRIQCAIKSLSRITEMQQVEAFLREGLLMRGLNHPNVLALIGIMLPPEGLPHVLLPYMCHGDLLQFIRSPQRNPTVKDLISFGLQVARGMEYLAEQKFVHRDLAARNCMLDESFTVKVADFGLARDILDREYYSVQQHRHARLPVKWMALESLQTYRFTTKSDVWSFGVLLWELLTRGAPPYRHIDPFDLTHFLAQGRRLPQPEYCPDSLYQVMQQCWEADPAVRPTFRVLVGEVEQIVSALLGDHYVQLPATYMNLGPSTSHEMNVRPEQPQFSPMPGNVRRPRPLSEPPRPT
Chain of UniProt P41144 (whole entry, looked up): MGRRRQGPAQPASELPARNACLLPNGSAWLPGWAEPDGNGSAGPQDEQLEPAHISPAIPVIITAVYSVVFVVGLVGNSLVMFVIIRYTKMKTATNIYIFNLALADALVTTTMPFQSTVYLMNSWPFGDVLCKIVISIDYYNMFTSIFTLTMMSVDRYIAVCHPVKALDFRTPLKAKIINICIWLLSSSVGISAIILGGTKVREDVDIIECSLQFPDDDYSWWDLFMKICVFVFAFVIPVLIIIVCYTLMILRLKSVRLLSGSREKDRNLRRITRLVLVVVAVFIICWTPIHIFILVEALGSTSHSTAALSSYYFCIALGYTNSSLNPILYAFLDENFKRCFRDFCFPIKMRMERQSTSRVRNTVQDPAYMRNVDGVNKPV

Compound	target	test	system	setting	endpoint	result
COc1ccc(-n2ccnc2SCC(=O)Nc2cc(C(F)(F)F)ccc2Cl)c(OC)c1	PFF0160c E182D	enzyme activity, inhibitor, absorbance	–	–	pIC50	6.87
CC[C@@H](C)[C@H](NC(=O)[C@H](CCc1ccccc1)NC(=O)CCc1ccccc1)C(=O)N[C@@H](CCCNC(=N)N)C(=O)c1nc2ccccc2s1	TMPRSS2	enzyme activity, inhibitor	–	1 nM	activity vs control	84%
Cc1nn(C)cc1-c1nc2c(N3CCN(Cc4ccc(Cl)cc4)CC3)c(Cl)cnc2[nH]1	Epidermal growth factor receptor (EGFR, Homo sapiens, UniProt P00533)	binding, competition with immobilised ligand	–	1 µM	remaining binding	100%
Nc1ncc(-c2nc(N3CCOCC3)nc(N3CCOCC3)n2)c(C(F)F)n1	Serine/threonine-protein kinase TAO1 (TAOK1, Homo sapiens, UniProt Q7L7X3)	binding, competition with immobilised ligand	–	10 µM	remaining binding	60%
[2H]c1c([2H])c([C@]2([2H])CCCN2C(=O)C(C)(C)Oc2ccc3cn[nH]c3c2)c([2H])c([2H])c1C([2H])([2H])[2H]	Mitogen-activated protein kinase kinase kinase kinase 5 (MAP4K5, Homo sapiens, UniProt Q9Y4K4)	binding, competition with immobilised ligand	–	1 µM	remaining binding	100%
CCCCCCn1c(O)c(N=NC(=O)c2ccccc2)c2ccccc21	Cannabinoid receptor 1 (CNR1, Homo sapiens, UniProt P21554)	β-arrestin recruitment, agonist	HEK293	–	Emax	~55%
CC(CNCc1cn(Cc2cc(Br)cc(Br)c2)c2ccccc12)CNc1cc(=O)c2ccccc2[nH]1 (centres unmarked)	PFF0160c E182D	enzyme activity, inhibitor, absorbance	–	–	pIC50	< 5.00
c1cncc([C@@H]2CCCN2)c1	D(2) dopamine receptor (DRD2, Homo sapiens, UniProt P14416)	ligand displacement	–	50 µM	inhibition	-1.48%
N=C(N)NCCCCC(=O)N[C@@H](CCC(N)=O)C(=O)N[C@@H](Cc1ccc(-c2ccccc2)cc1)C(=O)N[C@@H](CCCNC(=N)N)C(=O)c1nc2ccccc2s1	TMPRSS2	enzyme activity, inhibitor	–	1 nM	activity vs control	94%
C#Cc1n[nH]c2c(-c3cn(C(C)c4ccccn4)c(=O)[nH]c3=O)cc(F)cc12 (centres unmarked)	Macrophage-stimulating protein receptor (MST1R, Homo sapiens, UniProt Q04912)	enzyme activity, inhibitor	–	1 µM	inhibition	66.6%
N=C(N)NCCCCC(=O)N[C@@H](CCC(N)=O)C(=O)N[C@@H](Cc1ccc(CN)cc1)C(=O)N[C@H](CCCNC(=N)N)C(=O)c1nc2ccccc2s1	TMPRSS2	enzyme activity, inhibitor	–	1 nM	activity vs control	44%
CC(C)CC(=O)OC[C@H]1O[C@@](C#N)(c2ccc3c(N)ncnn23)[C@H](O)[C@@H]1O	Endothelin-1 receptor (EDNRA, Homo sapiens, UniProt P25101)	cell-free assay	–	20 µM	inhibition	-2%
C[C@@H](NC(=O)[C@H](CCC(N)=O)NC(=O)[C@@H](N)CCCNC(=N)N)C(=O)N[C@H](CCCNC(=N)N)C(=O)c1nc2ccccc2s1	TMPRSS2	enzyme activity, inhibitor	–	1 nM	activity vs control	100%
NC(=O)[C@H](Cc1ccccc1)NC(=O)[C@H](Cc1c[nH]c2ccccc12)NC(=O)[C@@H]1CCCN1C(=O)[C@@H](N)Cc1ccc(O)cc1	Procathepsin L (CTSL, Homo sapiens, UniProt P07711)	enzyme activity, inhibitor	–	100 µM	remaining activity	96.3%
COc1ncccc1-c1cnn2ccc(N3CCN(C(=O)OC(C)C)CC3)nc12	Mitogen-activated protein kinase 4 (MAPK4, Homo sapiens, UniProt P31152)	binding, competition with immobilised ligand	–	1 µM	remaining binding	100%
CC[C@@H](C)[C@@H]1CN([C@H](Cc2ccc3ccccc3c2)CN2CCC[C@H]2CN2CCNC[C@@H]2CO)CCN1CCc1ccc(Cl)c(Cl)c1	Kappa-type opioid receptor (OPRK1, Cavia porcellus, UniProt P41144)	ligand displacement, radioligand	–	0.5 µM, pH 7.5	remaining binding	94%
N=C(N)NCCCCC(=O)N[C@@H](CCC(N)=O)C(=O)N[C@@H](CC1CC1)C(=O)N[C@@H](CCCNC(=N)N)C(=O)c1nc2ccccc2s1	TMPRSS2	enzyme activity, inhibitor	–	1 nM	activity vs control	31%

Excerpt of the above:
Compound	target	test	system	setting	endpoint	result
CCCCCCn1c(O)c(N=NC(=O)c2ccccc2)c2ccccc21	Cannabinoid receptor 1 (CNR1, Homo sapiens, UniProt P21554)	β-arrestin recruitment, agonist	HEK293	–	Emax	~55%
CC(CNCc1cn(Cc2cc(Br)cc(Br)c2)c2ccccc12)CNc1cc(=O)c2ccccc2[nH]1 (centres unmarked)	PFF0160c E182D	enzyme activity, inhibitor, absorbance	–	–	pIC50	< 5.00
